Results of several laboratories.
Compare with care: the assays were run in different laboratories. ± marks the error that the study gave.
Cell line: LO2

C=C(CC)C(=O)c1ccc(OCC(=O)NCCCCNC(=O)COc2ccc(C(=O)C(=C)CC)c(Cl)c2Cl)c(Cl)c1Cl — IC10 (cell growth, CCK-8; 72 h): ~0.2 µM
Cc1ccc(/C=N/NC(=O)c2cc3cc(Nc4nccc(-c5cccnc5)n4)ccc3[nH]2)cc1 — IC50 (cell viability, MTT; 48 h): > 50 µM
CN(C(=NN=C(c1ccccc1)c1ccccn1)[S][Ga]([Cl])[Cl])C1CCCCC1 — IC50 (MTT; 48 h): 10.7 ± 1.69 µM
C=C(CC)C(=O)c1ccc(OCC(=O)NCCNC(=O)COc2ccc(C(=O)C(=C)CC)c(Cl)c2Cl)c(Cl)c1Cl — IC10 (cell growth, CCK-8; 72 h): ~1.2 µM
O=C(/C=C/CCc1ccc(O)cc1)/C=C/c1ccc(O)cc1 — inhibition (cell growth, MTT; 34.0 µM): 4.85%
COc1ccccc1/C=N/NC(=O)c1cc2cc(Nc3nccc(-c4cccnc4)n3)ccc2[nH]1 — IC50 (cell viability, MTT; 48 h): > 50 µM
Clc1ccc2ccc3[n+](c2c1)[Ir-3]12([c]4ccccc4-3)([c]3ccccc3-c3ccc4ccc(Cl)cc4[n+]31)[n+]1ccccc1-c1cccc[n+]12.F[P-](F)(F)(F)(F)F — IC50 (cell growth, MTT; 72 h): 1.07 ± 0.21 µM
CN(C)C(=NN=C(c1ccccc1)c1ccccn1)[S][Ga]([Cl])[Cl] — IC50 (MTT; 48 h): 18.9 ± 1.64 µM

A few entries again:
C=C(CC)C(=O)c1ccc(OCC(=O)NCCCCNC(=O)COc2ccc(C(=O)C(=C)CC)c(Cl)c2Cl)c(Cl)c1Cl — IC10 (cell growth, CCK-8; 72 h): ~0.2 µM
